Measurements from different studies.
Lines come from different studies, so protocols differ. Numbers after ± are the reported error.

CC(C)(Sc1ccncc1-c1ccc(C#N)c2ccccc12)C(=O)O — fraction excreted in urine (0-24 h) (human, urine; oral, 10 mg, with: febuxostat 20 mg): 1.66%
O=c1[nH]c(=O)n([C@H]2C[C@H](O)[C@@H](CO)O2)cc1CCCC[18F] — blood concentration (CD-1 nu/nu male mice, RG2 tumour, blood; intravenous, dose not given, 2 h, co-injection): 0.24 ± 0.06 %ID/g
N#Cc1ccc2c(c1)[C@H]1CCCN(C(=O)c3ccc4[nH]cnc4c3)[C@H]1C2 — total testosterone level (human males; 360 mg, day 7): 16.2 nmol/L
C=CC(=O)NC1CCN(c2ncc3ncnc(Nc4ccc(Oc5ccc6c(c5)ncn6C)c(C)c4)c3n2)CC1 — adverse events incidence (item: musculoskeletal disorders (SOC); human male; oral, dose not given, AEs, treatment-related, on drug, CTCAE): 0%
CC(C)N(C)c1ccc(NS(=O)(=O)c2cc(Cl)cc(Cl)c2O)cc1F — DLS scattered light intensity (colloidal aggregate formation, dynamic light scattering; 50 mM potassium phosphate buffer; 200 µM, pH 7.0, 1% DMSO; higher = more aggregation): 3.48e+07 counts/s
COc1ccnc(C(N)=O)c1O — Freundlich coefficient KF (soil adsorption; clay soil; pH 7.6, organic carbon 1.7 %): 11.4 mL/g
COc1cccc(OC)c1-c1cc(C(=O)NC2(C(=O)O)C3CC4CC(C3)CC2C4)nn1-c1ccc(C(=O)N(C)CCCN(C)CCCN(C)C(=O)CN2CCN(CC(=O)[O-])CCN(CC(=O)[O-])CCN(CC(=O)[O-])CC2)cc1C(C)C.[177Lu+3] (stereo not drawn) — tumour-to-large intestine ratio (mouse HT-29 xenograft; 4 h, biodistribution; relative to: tumour over large intestine): 5.86
O=C(COc1ccc(Cl)cc1)NC12CC(c3nnc([C@H]4C[C@@H](OC(F)(F)F)C4)o3)(C1)C2 — participants with TEAE (human both sexes; oral, 800 mg single dose): 66.7%
Cc1ccc(Sc2ccccc2N2CCNCC2)c(C)c1 — participants with TEAE (item: thermal burn; healthy adult men; oral, 20 mg daily, 12 days): 0%
O=C1NCCc2nc(OCc3cccc(F)c3)ccc21 — Irwin test score (item: Convulsions; Sprague-Dawley rat male; oral, 100 mg/kg, 4 h; direction not given): 0
[O]=[Co].[O]=[Co][O][Co]=[O] — haemoglobin (Crl:CD(SD) rat female, blood; oral, 220 mg Co/kg/day, 90 days, repeated dose): 10.1 mmol/L
O=C(Nc1nc2cccc(-c3ccc(CN4CCS(=O)(=O)CC4)cc3)n2n1)C1CC1 — treatment-emergent adverse events (item: general and administration-site disorders; rheumatoid arthritis patients; oral, 200 mg once daily, 4 weeks, any relatedness): 8.3%
CC(C)NCC(O)COc1cccc2ccccc12 (stereo not drawn) — QTc interval (male Hartley guinea pig, anaesthetized; intravenous infusion, 1 mg/kg, 10 min infusion, post-infusion): 355 ± 0.3 ms
FC(F)(F)c1ccc(CNc2ccc(Cc3c[nH]c4ncc(Cl)cc34)cn2)cn1 — dry mouth incidence (patients with advanced solid tumours; oral, 1000 mg/day, non-TGCT cohort, all grades): 4%
CC(C)N(CCCCOCC(=O)O)c1cnc(-c2ccccc2)c(-c2ccccc2)n1 — k34 rate constant (population PK model; healthy human, plasma; oral): 13.5 h⁻¹
N#C[C@@]1(c2ccc3c(N)ncnn23)O[C@H](CO)[C@@H](O)[C@H]1O — half-life (beagle dog, male, plasma; oral, 6.5 mg/kg, capsule): 3.39 h
NC1(C(=O)N[C@@H](CCO)c2ccc(Cl)cc2)CCN(c2nc[nH]c3nccc2-3)CC1 — incidence of Fatigue (metastatic CRPC patients; 400 mg b.i.d., any grade, treatment-related, with: enzalutamide 160 mg daily): 57.1%
COc1cc(C(=O)N2CCC3(CC2)CC(=O)c2c(cnn2C(C)C)C3)cc(-c2ccc(C(=O)O)cc2)n1 — percentage change from baseline (item: HDL cholesterol; human, fasting serum; 3 mg every 12 h, day 13, adjusted geometric mean; relative to: baseline): -3.4%
CCNCCCn1c2c(c3cc(OC)c(OC)cc3c1=O)C(=O)c1cc3c(nc1-2)OCO3 — Vss (male CD1 mouse, plasma; intravenous, 1 mg/kg): 17 L/kg
CCN1CCN(C(=O)N[C@@H](C(=O)N[C@@H]2C(=O)N3[C@@H]2SC(C)(C)[C@@H]3C(=O)O)c2ccccc2)C(=O)C1=O — deviation from nominal concentration (human whole blood; concentration not given, 8 h, 4 °C): 1.2%
Cc1ccc2ncccc2c1NS(=O)(=O)c1cccc(Cl)c1O — DLS scattered light intensity (colloidal aggregate formation, dynamic light scattering; 50 mM potassium phosphate buffer; 200 µM, pH 7.0, 1% DMSO; higher = more aggregation): 325000 counts/s
Cc1ccc([C@@H]2O[C@H](CO)[C@@H](O)[C@H](O)[C@H]2O)cc1Cc1ccc(-c2ccc(F)cc2)s1 — urinary calcium excretion change (Japanese type 2 diabetes patients; 25 mg, day 3, 24 h urine collection; relative to: baseline): -33 mg
CSc1nc(O)n2nccc2n1 — HC50 (haemolysis; sheep erythrocytes; 1 h, pH 7.5): > 128 µg/mL
CCOc1c([C@H](C)n2nc(C)c3c(N)ncnc32)cc(Cl)c(F)c1[C@@H]1CNC(=O)C1 — urinary excretion, unchanged (item: unchanged compound; Japanese patients, urine; oral, dose not given, 0-8 h, cycle 1 day 15): 12.1 ± 4.8%
CCc1cc(C(=O)NC)c2nccc(N3CCc4c(cc(Cn5ccnc5)cc4-c4cn(C)nc4C(F)(F)F)C3=O)c2c1 — kidney weight change (Sprague Dawley rat; oral, 100 mg/kg once daily, 7 days; relative to: vehicle): 6.48%
O=C(CCCN1CC=C(n2c(=O)[nH]c3ccccc32)CC1)c1ccc(F)cc1 — QTc interval (male Hartley guinea pig, anaesthetized; intravenous, 0.03 mg/kg, baseline before infusion): 308 ± 0.3 ms
C[C@@H](Oc1ccc(S(C)(=O)=O)cc1C(=O)N1C[C@@H]2C[C@]2(c2cc(C(F)(F)F)on2)C1)C(F)(F)F — subjects related visual brightness (human; oral plus intravenous microtracer, dose not given): 16.7%
C[C@H]1CNC(=O)c2cnn3ccc(nc23)N[C@H](C)c2cc(F)ccc2O1 — Cavg,u (human, plasma; 160 mg twice daily, steady state, recommended dose): 39 nM
Cn1cc([C@H]2C[C@H]3CSC(N)=N[C@@]3(c3ccc(F)cc3F)CO2)cn1 — CSF concentration (male 129/SVE mouse, CSF; subcutaneous, 10 mg/kg, 9 h): 8 nM
N[C@@H]1c2ccccc2OC12CCN(c1cnc3c(N4CCCc5ncccc54)n[nH]c3n1)CC2 — AUC(0-tau) (patients advanced solid tumours, plasma; oral, 150 mg once daily, cycle 1 day 15): 12300 ng·h/mL
O=C(COC(=O)c1n[nH]c2ccccc12)Nc1ccc(N2CCCCC2)cc1 — HC50 (haemolysis; sheep erythrocytes; 1 h, pH 7.5): > 128 µg/mL
CC(=O)N1CCc2c(NS(=O)(=O)c3cccc(Cl)c3O)cccc21 — DLS scattered light intensity (colloidal aggregate formation, dynamic light scattering; 50 mM potassium phosphate buffer; 200 µM, pH 7.0, 1% DMSO; higher = more aggregation): 753000 counts/s
CN1C[C@H](COc2nccc3c(NCc4ccco4)cc(Cl)nc23)OC1=O — effect on QTc (rabbit, isolated Langendorff heart; dose not given): negative
Cc1c(C(=O)O)ccc2c3n(nc12)[C@@H]1[C@H](C3)N(CC2CC2)[C@@]2(C(=O)Nc3cc(Cl)ccc32)[C@H]1c1cccc(Cl)c1F — AUC(0-t) (female BALB/c nude mice, SJSA-1 xenograft, plasma; oral, 2 mg/kg once daily, mean): 31.1 µM·h
Cc1ccc(C)c(OCCCC(C)(C)C(=O)O)c1 — trough plasma concentration (human, plasma; oral, dose not given, day 17 predose, mean): 1810 ng/mL
CCNCCCNC/C=C\CNCCCNCC — volume of distribution (LC-MS/MS; cancer patients, plasma; intravenous infusion, 200 mg, 60 min infusion, median, cycle 1): 2.14 L/kg
COc1ccc2c(c1)CN(C(=O)CCN1CCC(Cc3ccccc3)CC1)CC[S@@+]2[O-] — urinary excretion (healthy male volunteers, urine; intravenous, 0.05 mg/kg; relative to: dose): 7.04 ± 2.28%
CCCOc1ccc(NC(=O)CN2CCN(C)CC2)cc1-c1nc(CC)c(CC)c(=O)[nH]1 — drowsiness incidence (healthy Chinese men; 10 mg, with: alcohol 0.5 g/kg): 20%
CCOc1c([C@H](C)n2nc(C)c3c(N)ncnc32)cc(Cl)c(F)c1[C@@H]1CNC(=O)C1 — Cmax (human, indolent lymphoma, plasma; oral, 30 mg, day 15): 2990 nM
CCN1/C(=C/C(C)=O)Sc2ccc(F)cc21 — systolic blood pressure (cynomolgus monkey; oral, 10 mg/kg, 0.5 h post-dose): 112 ± 6 mmHg
CCO[C@H]1CCN(Cc2c(OC)cc(C)c3[nH]ccc23)[C@H](c2ccc(C(=O)O)cc2)C1 — incidence of dry throat (PNH patients, active haemolysis; oral, 50 mg, 4 weeks, treatment): 0%
O=S(=O)(NCC(F)(F)c1ccc(Cl)c(Cl)c1)c1cccc(Cl)c1O — DLS scattered light intensity (colloidal aggregate formation, dynamic light scattering; 50 mM potassium phosphate buffer; 200 µM, pH 7.0, 1% DMSO; higher = more aggregation): 1.06e+06 counts/s
COC1=C(OC)[C@H](O)[C@H](C/C=C(\C)CC/C=C(\C)CCC=C(C)C)[C@@H](C)C1=O — blood concentration (Balb/c mice male, whole blood; oral, 50 mg/kg, 7 h): 26.6 nM
Cn1ncc(S(=O)(=O)NCc2ccc(S(=O)(=O)NC3CC3)cc2)c1C(=O)O — DLS scattered light intensity (colloidal aggregate formation, dynamic light scattering; 50 mM potassium phosphate buffer; 200 µM, pH 7.0, 1% DMSO; higher = more aggregation): 946000 counts/s
CO[C@H]1CC[C@H](N2C(=O)CNc3ncc(-c4ccc(C(C)(C)O)nc4)nc32)CC1 — urinary excretion Ae(0-24 h) (patients, urine; oral, 30 mg, day -1, geometric mean): 28100 ng

Repeated from above:
N#Cc1ccc2c(c1)[C@H]1CCCN(C(=O)c3ccc4[nH]cnc4c3)[C@H]1C2 — total testosterone level (human males; 360 mg, day 7): 16.2 nmol/L
C=CC(=O)NC1CCN(c2ncc3ncnc(Nc4ccc(Oc5ccc6c(c5)ncn6C)c(C)c4)c3n2)CC1 — adverse events incidence (item: musculoskeletal disorders (SOC); human male; oral, dose not given, AEs, treatment-related, on drug, CTCAE): 0%
CC(C)N(C)c1ccc(NS(=O)(=O)c2cc(Cl)cc(Cl)c2O)cc1F — DLS scattered light intensity (colloidal aggregate formation, dynamic light scattering; 50 mM potassium phosphate buffer; 200 µM, pH 7.0, 1% DMSO; higher = more aggregation): 3.48e+07 counts/s
